# Results pooled from the literature.
# Protocols differ between the studies behind these lines. “And” joins repeats or separate records; there may be more than shown. ± gives the spread as reported.
# KRAS G12D GDP-bound: GTPase KRas, GDP-bound (KRAS, Homo sapiens, UniProt P01116, G12D)
# KRAS G12C GDP-bound: GTPase KRas, GDP-bound (KRAS, Homo sapiens, UniProt P01116, G12C)
# KRAS C118A/G12C: GTPase KRas (KRAS, Homo sapiens, UniProt P01116, C118A/G12C)
SMILES,target,assay,conditions,how to read,quantity,result
CC[C@H](C)[C@@H]1NC(=O)[C@H](Cc2ccc(-c3ccccc3)cc2)NC(=O)[C@H](CC(C)C)NC(=O)[C@@H]2CCCN2C(=O)[C@@H](NC(=O)[C@H](CCCNC(=N)N)NC(=O)[C@H](CCCNC(=N)N)NC(C)=O)CSSC[C@@H](C(=O)N[C@@H](CCCNC(=N)N)C(=O)N[C@@H](CCCNC(=N)N)C(N)=O)NC(=O)[C@H](C(C)C)NC(=O)[C@@H]2CCCN2C(=O)[C@H](CC(=O)O)NC(=O)[C@H](Cc2ccc(O)cc2)NC(=O)[C@H](CO)NC1=O,KRAS G12D GDP-bound,affinity selection mass spectrometry,"mixture library 1, with: protein titration up to 5 µM",lower is stronger binding,lowest bound protein concentration,0.08 µM
C#Cc1c(F)ccc2cc(O)cc(-c3ncc4c(N5CC6CCC(C5)N6)nc(OC[C@@]56CCCN5C[C@H](F)C6)nc4c3F)c12,"GTPase KRas, GppNHp-bound (KRAS, Homo sapiens, UniProt P01116)",SPR,wild type,relative to: GppNHp-bound over GDP-bound,on-rate decrease,1.4 fold
C=CC(=O)N1CCN(c2nc(OC[C@@H]3CCCN3C)nc3c(F)c(-c4nc(N)cc(C)c4C(F)(F)F)c(Cl)cc23)[C@@H](C)C1,KRAS G12C GDP-bound,"covalent inhibitor, SPR","GDP-bound, biotinylated",,kinact,0.00111 s⁻¹
C=CC(=O)N1CC2(CCN(c3nc(N[C@H](CC(=O)NC)CC(C)C)nc(-c4cccc(OC)c4F)n3)C2)C1,KRAS C118A/G12C,"covalent, DNA-encoded library screen",,,enrichment factor,116
C=C1CN2CCC[C@@]2(COc2nc3c4c(c(Cl)c(-c5nc(N)cc(C)c5C(F)(F)F)cc4n2)OC[C@@H]2CN(C(=O)/C=C/c4nccc5c4CNCC5)CCN32)C1,"GTPase KRas, GDP-bound (KRAS, Homo sapiens, UniProt P01116, G13D)","nucleotide exchange, inhibitor, HTRF",,relative to: 27,potency improvement,~14 fold
CC(=O)N[C@@H](CCCNC(=N)N)C(=O)N[C@@H](CCCNC(=N)N)C(=O)N[C@H]1CSSC[C@@H](C(=O)N[C@@H](CCCNC(=N)N)C(=O)N[C@@H](CCCNC(=N)N)C(N)=O)NC(=O)[C@H](C(C)C)NC(=O)[C@@H]2CCCN2C(=O)[C@H](CC(=O)O)NC(=O)[C@H](Cc2ccc(O)cc2)NC(=O)[C@H](CO)NC(=O)[C@H](CCC(C)C)NC(=O)[C@H](CCc2ccccc2)NC(=O)[C@H](CC(C)C)NC(=O)[C@@H]2CCCN2C1=O,KRAS G12D GDP-bound,affinity selection mass spectrometry,"mixture library 1, with: protein titration up to 5 µM",lower is stronger binding,lowest bound protein concentration,1.25 to 2.5 µM
C[C@H]1CNCCN1c1cccc(-c2noc([C@@]3(C)CCCc4sc(N)c(C#N)c43)n2)n1,"GTPase KRas, with SOS1 (KRAS, Homo sapiens, UniProt P01116, C118S/G12V)","KRAS G12V-SOS1 binding, inhibitor, AlphaScreen",,relative to: 2,potency gain from axial methyl,10 fold
C=CC(=O)N1C[C@H](C)N(c2nc(OC[C@@]34CCCN3C[C@H](F)C4)nc3c(F)c(-c4ccc(F)c5sc(N)c(C#N)c45)c(C(F)(F)F)cc23)C[C@H]1C,KRAS G12C GDP-bound,"covalent inhibitor, SPR","GDP-bound, biotinylated",,kinact,0.00236 s⁻¹
CC[C@H](C)[C@@H]1NC(=O)[C@H](Cc2ccc(O)cc2)NC(=O)[C@H](CC(C)C)NC(=O)[C@@H]2CCCN2C(=O)[C@@H](NC(=O)[C@H](CCCNC(=N)N)NC(=O)[C@H](CCCNC(=N)N)NC(C)=O)CSSC[C@@H](C(=O)N[C@@H](CCCNC(=N)N)C(=O)N[C@@H](CCCNC(=N)N)C(N)=O)NC(=O)[C@H](C(C)C)NC(=O)[C@@H]2CCCN2C(=O)[C@H](CC(=O)O)NC(=O)[C@H](Cc2ccc(O)cc2)NC(=O)[C@H](CO)NC1=O,KRAS G12D GDP-bound,affinity selection mass spectrometry,"mixture library 1, with: protein titration up to 5 µM",lower is stronger binding,lowest bound protein concentration,0.08 µM
C=CC(=O)N1CCN(c2nc(OC[C@@H]3CCCN3C)nc3c(F)c(-c4nc(N)cc(C)c4C(F)(F)F)c(Cl)cc23)[C@@H](C)C1,"GTPase KRas, GDP-bound (KRAS, Homo sapiens, UniProt P01116)",SPR,wild type GDP-bound,,koff,0.0888 ± 0.0015 s⁻¹
C=CC(=O)N1CC2(CCN(c3nc(N[C@H](CC(=O)NC)CC(C)C)nc(-c4cccc(OC)c4Cl)n3)CC2)C1,KRAS C118A/G12C,"covalent, DNA-encoded library screen",,,enrichment factor,67
Cc1nn2c(N3CCN(CCO)CC3)cc(-c3ccccc3)nc2c1-c1ccccc1,"GTPase KRas (KRAS, Homo sapiens, UniProt P01116)",,,,intrinsic nucleotide release rate,no effect
CCC[C@@H]1NC(=O)[C@H](CCc2ccccc2)NC(=O)[C@H](CC(C)C)NC(=O)[C@@H]2CCCN2C(=O)[C@@H](NC(=O)[C@H](CCCNC(=N)N)NC(=O)[C@H](CCCNC(=N)N)NC(C)=O)CSSC[C@@H](C(=O)N[C@@H](CCCNC(=N)N)C(=O)N[C@@H](CCCNC(=N)N)C(N)=O)NC(=O)[C@H](C(C)C)NC(=O)[C@@H]2CCCN2C(=O)[C@H](CC(=O)O)NC(=O)[C@H](Cc2ccc(O)cc2)NC(=O)[C@H](CO)NC1=O,KRAS G12D GDP-bound,affinity selection mass spectrometry,"mixture library 1, with: protein titration up to 5 µM",lower is stronger binding,lowest bound protein concentration,5 µM
C=CC(=O)N1CCN(c2cccc(-c3noc([C@@]4(C)CCCc5sc(N)c(C#N)c54)n3)c2)CC1,"GTPase KRas (KRAS, Homo sapiens, UniProt P01116, G12C)","covalent inhibitor, mass spectrometry",,,kinact,0.474 s⁻¹ and 0.455 s⁻¹ and 1.57 s⁻¹
CC[C@H](C)[C@@H]1NC(=O)[C@H](CC2CCCCC2)NC(=O)[C@H](CC(C)C)NC(=O)[C@@H]2CCCN2C(=O)[C@@H](NC(=O)[C@H](CCCNC(=N)N)NC(=O)[C@H](CCCNC(=N)N)NC(C)=O)CSSC[C@@H](C(=O)N[C@@H](CCCNC(=N)N)C(=O)N[C@@H](CCCNC(=N)N)C(N)=O)NC(=O)[C@H](C(C)C)NC(=O)[C@@H]2CCCN2C(=O)[C@H](CC(=O)O)NC(=O)[C@H](Cc2ccc(O)cc2)NC(=O)[C@H](CO)NC1=O,KRAS G12D GDP-bound,affinity selection mass spectrometry,"mixture library 1, with: protein titration up to 5 µM",lower is stronger binding,lowest bound protein concentration,0.08 to 0.16 µM
C=CC(=O)N1CC2(CCN(c3nc(N[C@H](CC(=O)NC)CC(C)C)nc(-c4cc(F)ccc4OC)n3)CC2(F)F)C1,KRAS C118A/G12C,"covalent, DNA-encoded library screen",,,enrichment factor,66
CCCC[C@@H]1NC(=O)[C@H]([C@@H](C)CC)NC(=O)[C@H](Cc2ccc(O)cc2)NC(=O)[C@H](CC(C)C)NC(=O)[C@@H]2CCCN2C(=O)[C@@H](NC(=O)[C@H](CCCNC(=N)N)NC(=O)[C@H](CCCNC(=N)N)NC(C)=O)CSSC[C@@H](C(=O)N[C@@H](CCCNC(=N)N)C(=O)N[C@@H](CCCNC(=N)N)C(N)=O)NC(=O)[C@H](C(C)C)NC(=O)[C@@H]2CCCN2C(=O)[C@H](CC(=O)O)NC(=O)[C@H](CC2CCCCC2)NC1=O,KRAS G12D GDP-bound,affinity selection mass spectrometry,"mixture library 2, with: protein titration up to 5 µM",lower is stronger binding,lowest bound protein concentration,1.25 to 2.5 µM
C=CC(=O)N1CC2(CCN(c3nc4c(c(N[C@H](CC(=O)NC)CC(C)C)n3)CCCC4)C2)C1,KRAS C118A/G12C,"SOS1-catalysed nucleotide exchange, AlphaScreen",,,ligand efficiency,0.24

# Some of these lines once more:
SMILES,target,assay,conditions,how to read,quantity,result
CC[C@H](C)[C@@H]1NC(=O)[C@H](CC2CCCCC2)NC(=O)[C@H](CC(C)C)NC(=O)[C@@H]2CCCN2C(=O)[C@@H](NC(=O)[C@H](CCCNC(=N)N)NC(=O)[C@H](CCCNC(=N)N)NC(C)=O)CSSC[C@@H](C(=O)N[C@@H](CCCNC(=N)N)C(=O)N[C@@H](CCCNC(=N)N)C(N)=O)NC(=O)[C@H](C(C)C)NC(=O)[C@@H]2CCCN2C(=O)[C@H](CC(=O)O)NC(=O)[C@H](Cc2ccc(O)cc2)NC(=O)[C@H](CO)NC1=O,KRAS G12D GDP-bound,affinity selection mass spectrometry,"mixture library 1, with: protein titration up to 5 µM",lower is stronger binding,lowest bound protein concentration,0.08 to 0.16 µM
C=CC(=O)N1CC2(CCN(c3nc(N[C@H](CC(=O)NC)CC(C)C)nc(-c4cc(F)ccc4OC)n3)CC2(F)F)C1,KRAS C118A/G12C,"covalent, DNA-encoded library screen",,,enrichment factor,66
CCCC[C@@H]1NC(=O)[C@H]([C@@H](C)CC)NC(=O)[C@H](Cc2ccc(O)cc2)NC(=O)[C@H](CC(C)C)NC(=O)[C@@H]2CCCN2C(=O)[C@@H](NC(=O)[C@H](CCCNC(=N)N)NC(=O)[C@H](CCCNC(=N)N)NC(C)=O)CSSC[C@@H](C(=O)N[C@@H](CCCNC(=N)N)C(=O)N[C@@H](CCCNC(=N)N)C(N)=O)NC(=O)[C@H](C(C)C)NC(=O)[C@@H]2CCCN2C(=O)[C@H](CC(=O)O)NC(=O)[C@H](CC2CCCCC2)NC1=O,KRAS G12D GDP-bound,affinity selection mass spectrometry,"mixture library 2, with: protein titration up to 5 µM",lower is stronger binding,lowest bound protein concentration,1.25 to 2.5 µM
